Published values gathered from unrelated publications.
Every numbered part comes from another study and shows a few of its results, in no order.

Sample 1
Target: Fragile X messenger ribonucleoprotein 1, C-terminal low-complexity region (Fmr1, Mus musculus, UniProt P35922)
Method: RNA Bind-n-Seq
Form: RNA
Medium: in vitro
Tested at: 200 nM
Setting: whole 134-nt RNA, ends assumed
Added: 150 mM LiCl
Reference: input library
Direction: higher = stronger binding
Library: 7-deaza-guanosine replaces G
All sequences stand within: GGGAGUUCUACAGUCCGACGAUC … UGGAAUUCUCGGGUGUCAAGG
| Oligonucleotide | log2 enrichment |
| --- | --- |
| UGGGAGGUGGAUUUUGUUUAUUUUCUUAGCUCAUUUCCAGGGGUGGGAAUUUUUUUUUAAUAUGUGUCAUGAAUAAAGUUGUUUUUGAAA | -0.438 |
| AGUCCUGUGCUACACAUCGUAUGUACCGAAUCGGAAAAAAAGGAAAAAAAGGAAAGGAAAGUAUUAUGUUACGCCGUUCGGAUCUGCACU | -1.98 |
| AAGUCCUGUGCUACACAUCGUAUGUACCGAAUCGGCCCCGGCCCCGGGGCCCCGGGAAAGUAUUAUGUUACGCCGUUCGGAUCUGCACUU | -3.32 |
| UCCUUCCUUUUUUUGUCUUAAACAUAGGACAUGGAUUUGAUUGACAUACUUUGGAGGCAAGAUAUAGAUCUUGGAGUAAGUCGAGAAGUA | -1.64 |
| AAGUCCUGUGCUACACAUCGUAUGUACCGAAUCGGGUUUGGGAAAGGGAAAAAGGGAAAGUAUUAUGUUACGCCGUUCGGAUCUGCACUU | -0.353 |
| GCACGAAGUAAAAACAAAUGGAAAUGCUUCGGAUAGUGGCAGGGGUGGGGGUUGCUAAGGAAAGGGUGGGAUGGGAGUGGGUAAAGAGUU | 1.23 |
| GUCCUGUGCUACACAUCGUAUGUACCGAAUCGGGCCCCCGGGCCCCCGGGGCCCCCGGAAAGUAUUAUGUUACGCCGUUCGGAUCUGCAC | -3.29 |
| GCAGGAAGUAAAAACAAAUGGAAAUGCUUCGGAUAAAGGCAGGGGUGGGGGUUGCUAAGGAAAGGGUGGGAUGGGAGUGGGUAAAGAGUU | 1.41 |
| CAAGUCCUGUGCUACACAUCGUAUGUACCGAAUCGGGGCCCGGGCCCGGGGCCCGGAAAGUAUUAUGUUACGCCGUUCGGAUCUGCACUU | -1.79 |
| CCUCAAGUCCUGUGCUACACAUCGUAUGUACCGAAUCGGGUGGGUGGUGGGGAAAGUAUUAUGUUACGCCGUUCGGAUCUGCACUUCCAG | -0.293 |
| AAGUCCUGUGCUACACAUCGUAUGUACCGAAUCGGGUUUGGGAAAAAGGGAAAGGGAAAGUAUUAUGUUACGCCGUUCGGAUCUGCACUU | -1.02 |

Sample 2
Target: RING finger protein unkempt homolog, zinc fingers 1-6, GST-SBP tag (UNK, Homo sapiens, UniProt Q9C0B0, residues 30-357)
Method: RNA Bind-n-Seq
Form: RNA
Medium: in vitro
Tested at: not given
Setting: RNA with constant flanks, ends assumed
Reference: input RNA pool
Direction: higher = stronger binding
All sequences stand within: GGGAGUUCUACAGUCCGACGAUC … CAACAGAGGAUUGAGCAUCA
Construct (chain): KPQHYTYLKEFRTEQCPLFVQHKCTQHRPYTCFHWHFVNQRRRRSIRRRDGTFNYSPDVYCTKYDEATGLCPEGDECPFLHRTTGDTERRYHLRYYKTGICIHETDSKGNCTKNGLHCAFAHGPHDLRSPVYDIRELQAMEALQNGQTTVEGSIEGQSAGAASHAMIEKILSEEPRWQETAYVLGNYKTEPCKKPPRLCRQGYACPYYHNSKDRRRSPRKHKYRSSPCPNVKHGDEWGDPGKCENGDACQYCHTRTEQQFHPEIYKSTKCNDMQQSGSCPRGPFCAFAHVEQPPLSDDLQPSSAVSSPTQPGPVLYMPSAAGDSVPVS
| Oligonucleotide | bound/input enrichment |
| --- | --- |
| GAGCAAUUUGAGAGGUACCUGCAUGACGAGAGCGGCUUGAACAGGCGGCACAUCAUUGAUAACCGGGUGCAUUGUUGCUUUUACUUUAUUUCACCUUUUGGACAUGGACUUAAGCCCUUA | 0.186 ratio |
| CGCGGCCCCGCGACCCUCGGGGGUCGCUGAGAGGCCCGGCGUCGGCGCCGCAGCCGUCCCGGAUUUCUGUCCAAAGGCGUCCCUGGCGUCCCCAGCCCGAAGCUCCAAGCUCGGGGCUGC | 0.0734 ratio |
| UUAGAUGUGACUGUACAGUCCUUUGGAUGGUCUGAUAGAGCAAAGGUAAAAACAGAUGAUACCGCAAGAAUUUAUCAGCCUAAGCGUUAUGCUUUGUCACCCAAGACAACGAUUACAAUG | 0.205 ratio |
| UGGCAGCUGGCUUCUUUGGCUCGUUAUUAUGUCUGUGAGAUUUAUUCAUGUUGCUGUGCGCCGUACCGUUUGUGCAUGUUCAUUGCUAAAAACUUCCAUUGUUUGGCUGUAUCGUAGUUC | 0.383 ratio |
| AGUCAGCACAGCCGCGGCGGCUGCAGCAGCGAGAGUUCUAGGGUUGCCCUUAAUUGCUGCCGUAACCUGGGUCCGGGGCCUCGGUGGUGCUCCGAUGUCCCUCACCCACCCCUGAAGAUC | 0.132 ratio |
| AUACCUCCAACAGGGUCACUGUCAAGAACCUCGAUUAUAGCAGGAAGCUGAAAAACGUGCCCGUGACCAUUUACUGGCUGGGGAAAGCUGCAAACAGCUGUGCAUCCUACGGUGGAACCA | 0.146 ratio |
| CAGAGCAGGGAGGAUAGUGACCCUGAGUACCGGGCCAGCAAGUCCAAGCCACUGACCCUACCCGAAUACAACCUUACUAUGGAUACCGCAAAAUUAUUCAUGUCCUGUCUCCACGCCUGG | 0.136 ratio |
| GCGGAGAAGGACUCUCUGGACCCCUCCUUCACGCACGCCCUGCGCUUGGUGAACCGAGAAACCGAAAAGUUUCAAAAGGGAGAAGGCAAGGAGGAAGAGAAGUACAUUGACGUGGUGAUA | 0.196 ratio |
| CUCAACCAUCCAAAUGUAAUAAAAUAUUAUGCAUCAUUCAUUGAAGAUAAUGAACUAAACACCGUUUUGGAACUAGCAGAUGCUGGCGACCUAUCCAGAAUGAUCAAGCAUUUUAAGAAG | 0.171 ratio |
| GCUGAAGAUUUAAUUUGUGAUACCUUUGUAUGUAUGAGACACAUUCCAAAGAGCUCUAACUAUGACCGGUCCUGAUUACUAAAGAAGCUUCUUUACUGGCCUCAAUUUCUAGCUUUCAUG | 0.132 ratio |
| ACCUCGUUUCUUUAUCUUCUUUUUUAUUUUCUUUCUUUUUCUUCGUUUUUUUUUUUUUUCCCGUGUUGUUACCCACGCCAUUUUACGUCUCCUUCACUGAAGGGCUAGAGUUUUAACUUU | 16.4 ratio |

Sample 3
Target: RNA binding protein fox-1 homolog 2, RRM domain, GST-SBP tag (RBFOX2, Homo sapiens, UniProt O43251-10, residues 100-194)
Method: RNA Bind-n-Seq
Form: RNA
Medium: in vitro
Tested at: 365 nM
Setting: natural RNA segment, single round, ends assumed
Reference: no-protein control
Direction: higher = stronger binding
All sequences stand within: GGGAGUUCUACAGUCCGACGAUC … UGGAAUUCUCGGGUGCCAA
Target sequence (chain): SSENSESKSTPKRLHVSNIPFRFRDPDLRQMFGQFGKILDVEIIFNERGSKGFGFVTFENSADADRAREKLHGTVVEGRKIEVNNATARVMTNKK
| Oligonucleotide | RBNS enrichment (R) |
| --- | --- |
| AUAGAAUAUAUAAAACAUAACUUCAAGCUUAUGUCUUCUUUUUAAAACAUCUGAAGUAUGGGACGCCCUGGCCGUUCCAUCCAGUACUAAAUGCUUACCGUGUGACCCUU | 0.302 |
| GUCUGUGCCCGCGGAGACCUCCUCUGACCAAGGGGCACUAGUAUGCCUUGCGCUAUCAUGACUGACUGGCCCAGUAUGAUUCUGUUGUCGCUGAUCUCCCGGAGGAGGAG | 0.943 |
| AGGUACAGUCACCACCACCCUGGAACCAAGGGUCUCACACCAUUGCUCAGUGCUGAACUAUAACUGCCACACGUCCCCUCAUAUCAAAUGGAGCAGUGGCAAUCUCCCUG | 0.412 |
| UCCUGCCGCCUUCCAGUUCCUUGGUGUCCCGUGCACCCCUUCUGUCUGUCCCCUUUCAUGGCUGUGCAGCCGUCCCGCUGGAGUGGCCAUGUCCCUUGUGCAUUGAGUGC | 1.28 |
| CAGAUAGAUGGUGGUAUGUUGGGUGGAAAGACAAGUUGACCAAGUUCCCUUGUCGAUGCUGAUUCCUGGAGUCAGUUGGUUAUGAGUAGUAUAAGGGAUUCCCACUACAA | 1.17 |
| GGCCGUGUGGCGGCCCUAUAAGCACCCUGGAGACUCUCGGGCCAGCCGAAUCCUUCCCUCCAGCCCGAGACUACAAGAAGAAACAGACUUUGGCCUGGUCCCAGGGGCCA | 0.357 |
| UUUCUCAUGAGCGGGGAGCAUAACUGUUAGUUAUUUGUGGUGAUUAUGGCAGAUUUCAAGAUCACGUGACAAUGCAGUCUCUAAUUGUUCACUGUCCAUAUAUAUGAUUU | 0.728 |
| CCCCAGUAGGCCUGUCCUGGCCAGAGAAGACUGGUAGGGGCCGAGUGGGGUUUGAAGGCAGCCGGCCCGGCCCAGCCCAGGAGCGCUAUUUAUUGCAUAUUUAUUGUUUG | 1.2 |
| UGUCUUAAGCAACAGCCCCAAAUGCUGGCUGCCCCCAGCCAAGCAUUGGGGCCGCCAUCCUGCCUGGCACUGGCUGAUGGGCACCUCUGUUGGUUCCAUCAGCCAGAGCU | 0.155 |
| AAAUUCCAAGGAUUAGGAAAAGUGGAAUGUUUUUGCCCCUCAAAGUCCACCCCCUAGACAGCAAUGCCCUCUGGACUUGAUCCUGAGCCUAAUAAACCUGUGUGCACUCC | 0.577 |
| GCUUCCCUGGCUGAGUCACAGGGCAGGGAAAUAAAGAAGUCUGGAGUGUUAGGACGGUUUGAGAGGGAAGGAGAGAGAGAAGAAAGACGAACCACUUGAGACUGAGACUG | 1.11 |
| GUUGAGGCCUUCUUUAUUCCUGCUCUGUCAGCUUUCAUGGUCACUGGAAAUCACUGCCACAGUACAGGCUGUGACUGCAGAUGCCAAAAUGAUUAGGAUGCCACAGAUGG | 0.37 |

Sample 4
Target: Sal-like protein 4, full length isoform A (SALL4, Homo sapiens, UniProt Q9UJQ4, residues 1-1053)
UniProt Q9UJQ4, sequence (whole entry, looked up): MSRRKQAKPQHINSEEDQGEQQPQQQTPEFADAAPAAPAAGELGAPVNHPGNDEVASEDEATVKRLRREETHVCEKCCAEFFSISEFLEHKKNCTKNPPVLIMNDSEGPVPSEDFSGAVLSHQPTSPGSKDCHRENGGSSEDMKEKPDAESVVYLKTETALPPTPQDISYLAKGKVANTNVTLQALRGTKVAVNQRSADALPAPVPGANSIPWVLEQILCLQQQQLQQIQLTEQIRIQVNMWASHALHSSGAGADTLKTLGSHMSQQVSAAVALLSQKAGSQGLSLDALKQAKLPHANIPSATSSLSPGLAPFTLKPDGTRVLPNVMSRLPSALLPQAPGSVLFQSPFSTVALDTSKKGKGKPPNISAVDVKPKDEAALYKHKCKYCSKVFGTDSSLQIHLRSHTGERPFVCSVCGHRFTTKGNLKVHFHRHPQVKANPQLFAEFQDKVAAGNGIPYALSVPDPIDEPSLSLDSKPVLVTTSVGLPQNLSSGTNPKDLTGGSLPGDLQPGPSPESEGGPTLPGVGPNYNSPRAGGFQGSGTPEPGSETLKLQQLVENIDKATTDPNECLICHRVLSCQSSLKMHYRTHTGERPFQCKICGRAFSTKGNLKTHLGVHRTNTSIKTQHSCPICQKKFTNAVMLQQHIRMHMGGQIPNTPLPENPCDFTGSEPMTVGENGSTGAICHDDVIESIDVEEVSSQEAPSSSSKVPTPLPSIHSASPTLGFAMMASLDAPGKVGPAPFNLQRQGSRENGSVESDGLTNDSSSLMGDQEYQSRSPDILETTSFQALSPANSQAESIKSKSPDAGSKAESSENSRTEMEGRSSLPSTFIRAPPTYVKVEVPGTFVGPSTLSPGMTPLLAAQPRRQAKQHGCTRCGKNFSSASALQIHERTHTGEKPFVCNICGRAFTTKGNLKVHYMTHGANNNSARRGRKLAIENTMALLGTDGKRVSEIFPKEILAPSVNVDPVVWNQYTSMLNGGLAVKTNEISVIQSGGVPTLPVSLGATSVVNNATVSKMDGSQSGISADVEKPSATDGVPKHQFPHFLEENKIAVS
Method: universal PBM
Form: double-stranded DNA, one strand shown
Medium: in vitro
Tested at: 600 nM
Setting: 8-mer, flanks averaged, mean of replicates
Direction: higher = stronger binding
| Oligonucleotide | E-score |
| --- | --- |
| CGGCTAAC | -0.131 |
| AGCCGAGG | -0.135 |
| CTACGATA | 0.213 |
| GTCACCAC | -0.214 |
| ATTGGGGG | 0.00464 |
| CATGCTGA | -0.0652 |
| CGTAGAGC | -0.215 |
| GAGCTCAC | -0.263 |
| GCGCGTCA | -0.204 |
| CAGTCGAC | -0.0514 |
| CTGTCTCC | -0.189 |
| CCGGTTAC | -0.194 |
| CTTGGTTC | 0.0369 |
| CATTTTTC | 0.327 |
| CACCCTGC | -0.23 |
| TCGCACCA | -0.0102 |
| TACCAACA | 0.0912 |
| ATGTTTGG | 0.197 |
| CCAAGAAA | 0.117 |
| GTCGATTA | 0.216 |
| AAAGCTCT | -0.103 |
| AATTCTAG | 0.219 |
| ACAGCGTC | -0.0122 |
| CATCTACC | -0.0403 |
| GGACTTAA | 0.011 |

For quick reference, copied from above (sample 4):
| Oligonucleotide | E-score |
| --- | --- |
| GGACTTAA | 0.011 |
| ACAGCGTC | -0.0122 |
| CCGGTTAC | -0.194 |
| CATCTACC | -0.0403 |
| CTTGGTTC | 0.0369 |
| GTCGATTA | 0.216 |
